Published values from different studies.
Protocols differ between the studies behind these lines. Several values in a cell are separate wells, animals, samples, runs or records. ± gives the spread as reported.
Sequence of UniProt Q16853 (whole entry, looked up): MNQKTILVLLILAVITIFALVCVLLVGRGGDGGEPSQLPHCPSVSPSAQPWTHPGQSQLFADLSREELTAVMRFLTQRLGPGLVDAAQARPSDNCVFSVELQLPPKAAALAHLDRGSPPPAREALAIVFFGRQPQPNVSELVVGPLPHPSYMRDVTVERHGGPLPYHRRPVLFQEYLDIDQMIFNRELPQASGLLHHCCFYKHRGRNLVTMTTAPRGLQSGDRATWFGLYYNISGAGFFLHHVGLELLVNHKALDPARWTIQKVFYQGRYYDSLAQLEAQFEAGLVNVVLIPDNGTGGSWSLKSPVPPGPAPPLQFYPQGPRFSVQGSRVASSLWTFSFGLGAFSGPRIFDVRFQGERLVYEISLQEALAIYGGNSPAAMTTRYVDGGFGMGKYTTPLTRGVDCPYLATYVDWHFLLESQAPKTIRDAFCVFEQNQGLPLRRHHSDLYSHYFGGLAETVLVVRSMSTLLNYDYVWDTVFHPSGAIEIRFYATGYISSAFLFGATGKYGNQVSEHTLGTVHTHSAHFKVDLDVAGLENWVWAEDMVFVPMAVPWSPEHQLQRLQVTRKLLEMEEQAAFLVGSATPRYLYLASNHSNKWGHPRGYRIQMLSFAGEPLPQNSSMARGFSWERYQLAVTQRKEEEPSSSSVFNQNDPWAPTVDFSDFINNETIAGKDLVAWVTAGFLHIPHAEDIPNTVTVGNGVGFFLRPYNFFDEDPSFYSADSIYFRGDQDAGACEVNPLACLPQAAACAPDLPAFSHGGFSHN

| SMILES | tested on | test | system | conditions | scale | measurement | result |
| --- | --- | --- | --- | --- | --- | --- | --- |
| CC(=O)OCc1nn(C)c2nc(N)[nH]c(=O)c2c1=O | Escherichia coli | LC-MS/MS | BW25113 | 100 µM, 10 min, 37 °C | – | intracellular accumulation | 5.79 µM |
| NCc1cc2c(cc1F)C(=O)N(C1CCC(=O)NC1=O)C2 (stereo not drawn) | Amine oxidase [copper-containing] 3 (AOC3, Homo sapiens, UniProt Q16853) | LC-MS/MS | cirrhotic human liver lysate | 1.95 µM, 60 min, pH 7.4, 37 °C | – | concentration | 308 ng/mL and 341 ng/mL |
| CCOc1c([C@H](C)n2nc(C)c3c(N)ncnc32)cc(Cl)c(F)c1[C@@H]1CNC(=O)C1 | – | – | human, indolent lymphoma, plasma | oral, 30 mg, day 15, geometric mean | – | AUC(0-tau) | 24.1 µM·h |
| Cc1cc(C(=O)NC(C)(C)COc2cccc3c2C(N)=NS(=O)(=O)N3)cc(C)n1 | human peripheral blood lymphocytes | CBPI, concurrent micronucleus test | – | 250 µg/mL, 4 h | reference: vehicle control | cytotoxicity | -2% |
| Cc1cc(C)c(CNC(=O)c2cc(Cl)c3c(c2C)O[C@@](C)([C@H]2CC[C@H](N(C)C)CC2)O3)c(=O)[nH]1 | – | – | relapsed/refractory NHL patients | oral, 200 mg once daily, onset after cycle 1 day 1 | – | adverse event Pruritus | 16.7% |
| Cc1cc(Nc2ccc(S(F)(F)(F)(F)F)cc2)n2nc(C(C)(F)F)nc2n1 | Plasmodium vivax | 12-lead ECG | malaria patients | oral, 400 mg, increase above 30 ms | – | patients with QTcB increase | 0% |
| CCn1c(=O)c2c(nc(/C=C/c3ccc(OC)c(OC)c3)n2C)n(CC)c1=O | MDCK | – | – | 1 µM, 90 min, pH 6.5 apical, 7.4 basolateral, basolateral to apical | – | mass recovery | 78 ± 5% |
| CC(=O)Nc1cccc(-n2c(=O)n(C3CC3)c(=O)c3c(Nc4ccc(I)cc4F)n(C)c(=O)c(C)c32)c1 | MeWo | resazurin | – | 6.25 nM, 72 h, unit not given | reference: DMSO | viability | 0.793 and 0.601 |
| C[C@@H](c1ncncc1F)[C@](O)(Cn1cncn1)c1ccc(F)cc1F | MDCK | – | – | 1 µM, 90 min, pH 6.5 apical, 7.4 basolateral | – | Papp A to B | 50.5 ×10⁻⁶ cm/s and 43 ×10⁻⁶ cm/s |
| CC[C@H](CO)N(CCN(N=O)[C@H](CC)CO)N=O | Escherichia coli | mutagenicity, Ames plate incorporation | WP2 uvrA pKM101 | 50 µg/plate, without S9, methanol | – | revertant colonies per plate | 128 ± 22 |
| Cc1cnc(Nc2ccc(OCCN3CCCC3)cc2)nc1Nc1cccc(S(=O)(=O)NC(C)(C)C)c1 | MDCK | – | – | 1 µM, 90 min, pH 6.5 apical, 7.4 basolateral, apical to basolateral | – | mass recovery | 95 ± 8% |
| N[C@@H](CO)C(=O)O | Escherichia coli | – | MG1655, M9 medium | 1 mM, 1 mM equimolar amino acid mixture | – | uptake half-time | 2.7 h |
| CCN1/C(=C/C(C)=O)Sc2ccc(F)cc21 | – | – | cynomolgus monkey | oral, 30 mg/kg, 0.5 h post-dose | – | QRS duration | 35 ± 2 ms |
| N[C@@H](CCC(=O)O)C(=O)O | Escherichia coli | amino acid uptake | MG1655 | added: equimolar amino acid mixture 1 mM | – | half-time of uptake | 19.9 h |
| Cn1cc(-c2ccc(-c3cncc(Cl)c3N3CCC4(CCNC4=O)CC3)cc2)cn1 | COLO 205 | gene expression, microarray, refers to: EGLN3 mRNA | – | concentration not given, 2 h | reference: untreated cells | log2 fold change | 1.55 |
